Experimental data gathered from unrelated publications.
Compare with care: the assays were run in different laboratories.
PIP4K2C: Phosphatidylinositol 5-phosphate 4-kinase type-2 gamma (PIP4K2C, Homo sapiens, UniProt Q8TBX8)
Chain of UniProt Q8TBX8 (whole entry, looked up): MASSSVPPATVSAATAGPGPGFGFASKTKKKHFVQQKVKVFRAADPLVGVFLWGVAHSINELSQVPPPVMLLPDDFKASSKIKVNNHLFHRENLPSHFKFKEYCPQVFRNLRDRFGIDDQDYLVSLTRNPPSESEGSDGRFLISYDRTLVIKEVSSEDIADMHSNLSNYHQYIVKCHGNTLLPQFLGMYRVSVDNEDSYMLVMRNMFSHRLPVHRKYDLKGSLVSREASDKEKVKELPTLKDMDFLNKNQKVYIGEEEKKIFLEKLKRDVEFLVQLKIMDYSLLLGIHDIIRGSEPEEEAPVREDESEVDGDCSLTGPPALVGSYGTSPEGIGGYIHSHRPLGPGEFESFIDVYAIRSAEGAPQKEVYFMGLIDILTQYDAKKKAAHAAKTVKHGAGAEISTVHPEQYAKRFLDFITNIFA
Chain of UniProt Q6PL18 (whole entry, looked up): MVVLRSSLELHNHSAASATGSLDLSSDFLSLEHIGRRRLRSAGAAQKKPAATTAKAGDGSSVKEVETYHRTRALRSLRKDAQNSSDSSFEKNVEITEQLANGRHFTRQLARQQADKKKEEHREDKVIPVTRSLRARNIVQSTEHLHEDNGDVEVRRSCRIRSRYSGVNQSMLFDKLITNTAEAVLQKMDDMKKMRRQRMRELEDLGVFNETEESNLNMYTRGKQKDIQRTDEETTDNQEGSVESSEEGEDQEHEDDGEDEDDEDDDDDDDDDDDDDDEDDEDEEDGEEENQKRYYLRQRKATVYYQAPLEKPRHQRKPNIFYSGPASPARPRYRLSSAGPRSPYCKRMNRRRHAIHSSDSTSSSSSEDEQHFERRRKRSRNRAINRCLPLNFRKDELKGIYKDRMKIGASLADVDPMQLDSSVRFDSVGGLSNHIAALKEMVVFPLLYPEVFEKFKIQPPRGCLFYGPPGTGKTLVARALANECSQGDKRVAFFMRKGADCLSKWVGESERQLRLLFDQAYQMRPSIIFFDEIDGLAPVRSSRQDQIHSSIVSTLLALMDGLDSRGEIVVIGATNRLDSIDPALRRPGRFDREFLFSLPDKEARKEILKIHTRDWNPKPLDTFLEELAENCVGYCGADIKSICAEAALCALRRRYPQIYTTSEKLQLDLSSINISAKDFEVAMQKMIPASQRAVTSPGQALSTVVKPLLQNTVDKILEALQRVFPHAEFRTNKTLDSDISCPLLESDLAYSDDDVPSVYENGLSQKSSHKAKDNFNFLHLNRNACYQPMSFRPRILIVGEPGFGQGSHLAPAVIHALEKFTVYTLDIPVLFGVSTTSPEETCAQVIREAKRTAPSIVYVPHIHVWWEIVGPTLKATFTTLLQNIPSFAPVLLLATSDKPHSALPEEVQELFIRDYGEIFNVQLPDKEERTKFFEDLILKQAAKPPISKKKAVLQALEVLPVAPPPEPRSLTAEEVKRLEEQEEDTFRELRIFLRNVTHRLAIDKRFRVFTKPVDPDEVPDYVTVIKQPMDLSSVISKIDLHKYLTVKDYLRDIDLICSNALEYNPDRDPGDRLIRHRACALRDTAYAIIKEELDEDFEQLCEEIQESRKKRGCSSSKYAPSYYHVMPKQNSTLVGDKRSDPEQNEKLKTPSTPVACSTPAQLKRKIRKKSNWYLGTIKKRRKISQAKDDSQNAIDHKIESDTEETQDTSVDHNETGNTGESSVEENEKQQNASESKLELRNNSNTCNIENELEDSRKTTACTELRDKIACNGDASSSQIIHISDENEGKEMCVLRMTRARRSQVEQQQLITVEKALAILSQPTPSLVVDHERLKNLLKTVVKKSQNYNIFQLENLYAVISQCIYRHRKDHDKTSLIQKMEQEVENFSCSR
Chain of UniProt P19525 (whole entry, looked up): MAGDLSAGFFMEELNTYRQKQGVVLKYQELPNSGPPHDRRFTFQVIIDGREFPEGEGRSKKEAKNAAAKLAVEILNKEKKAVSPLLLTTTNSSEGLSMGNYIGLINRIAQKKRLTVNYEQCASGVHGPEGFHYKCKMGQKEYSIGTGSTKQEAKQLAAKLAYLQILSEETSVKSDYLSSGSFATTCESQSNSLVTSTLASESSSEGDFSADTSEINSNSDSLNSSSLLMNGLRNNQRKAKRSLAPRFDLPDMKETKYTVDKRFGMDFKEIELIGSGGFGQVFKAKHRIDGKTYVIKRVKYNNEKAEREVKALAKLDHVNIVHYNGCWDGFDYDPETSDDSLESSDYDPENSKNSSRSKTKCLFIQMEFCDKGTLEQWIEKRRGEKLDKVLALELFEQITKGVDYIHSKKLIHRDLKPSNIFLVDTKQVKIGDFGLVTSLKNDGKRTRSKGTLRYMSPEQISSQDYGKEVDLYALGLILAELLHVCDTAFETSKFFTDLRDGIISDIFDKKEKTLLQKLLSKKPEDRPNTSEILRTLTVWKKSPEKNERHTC
Chain of UniProt Q9UIF8 (whole entry, looked up): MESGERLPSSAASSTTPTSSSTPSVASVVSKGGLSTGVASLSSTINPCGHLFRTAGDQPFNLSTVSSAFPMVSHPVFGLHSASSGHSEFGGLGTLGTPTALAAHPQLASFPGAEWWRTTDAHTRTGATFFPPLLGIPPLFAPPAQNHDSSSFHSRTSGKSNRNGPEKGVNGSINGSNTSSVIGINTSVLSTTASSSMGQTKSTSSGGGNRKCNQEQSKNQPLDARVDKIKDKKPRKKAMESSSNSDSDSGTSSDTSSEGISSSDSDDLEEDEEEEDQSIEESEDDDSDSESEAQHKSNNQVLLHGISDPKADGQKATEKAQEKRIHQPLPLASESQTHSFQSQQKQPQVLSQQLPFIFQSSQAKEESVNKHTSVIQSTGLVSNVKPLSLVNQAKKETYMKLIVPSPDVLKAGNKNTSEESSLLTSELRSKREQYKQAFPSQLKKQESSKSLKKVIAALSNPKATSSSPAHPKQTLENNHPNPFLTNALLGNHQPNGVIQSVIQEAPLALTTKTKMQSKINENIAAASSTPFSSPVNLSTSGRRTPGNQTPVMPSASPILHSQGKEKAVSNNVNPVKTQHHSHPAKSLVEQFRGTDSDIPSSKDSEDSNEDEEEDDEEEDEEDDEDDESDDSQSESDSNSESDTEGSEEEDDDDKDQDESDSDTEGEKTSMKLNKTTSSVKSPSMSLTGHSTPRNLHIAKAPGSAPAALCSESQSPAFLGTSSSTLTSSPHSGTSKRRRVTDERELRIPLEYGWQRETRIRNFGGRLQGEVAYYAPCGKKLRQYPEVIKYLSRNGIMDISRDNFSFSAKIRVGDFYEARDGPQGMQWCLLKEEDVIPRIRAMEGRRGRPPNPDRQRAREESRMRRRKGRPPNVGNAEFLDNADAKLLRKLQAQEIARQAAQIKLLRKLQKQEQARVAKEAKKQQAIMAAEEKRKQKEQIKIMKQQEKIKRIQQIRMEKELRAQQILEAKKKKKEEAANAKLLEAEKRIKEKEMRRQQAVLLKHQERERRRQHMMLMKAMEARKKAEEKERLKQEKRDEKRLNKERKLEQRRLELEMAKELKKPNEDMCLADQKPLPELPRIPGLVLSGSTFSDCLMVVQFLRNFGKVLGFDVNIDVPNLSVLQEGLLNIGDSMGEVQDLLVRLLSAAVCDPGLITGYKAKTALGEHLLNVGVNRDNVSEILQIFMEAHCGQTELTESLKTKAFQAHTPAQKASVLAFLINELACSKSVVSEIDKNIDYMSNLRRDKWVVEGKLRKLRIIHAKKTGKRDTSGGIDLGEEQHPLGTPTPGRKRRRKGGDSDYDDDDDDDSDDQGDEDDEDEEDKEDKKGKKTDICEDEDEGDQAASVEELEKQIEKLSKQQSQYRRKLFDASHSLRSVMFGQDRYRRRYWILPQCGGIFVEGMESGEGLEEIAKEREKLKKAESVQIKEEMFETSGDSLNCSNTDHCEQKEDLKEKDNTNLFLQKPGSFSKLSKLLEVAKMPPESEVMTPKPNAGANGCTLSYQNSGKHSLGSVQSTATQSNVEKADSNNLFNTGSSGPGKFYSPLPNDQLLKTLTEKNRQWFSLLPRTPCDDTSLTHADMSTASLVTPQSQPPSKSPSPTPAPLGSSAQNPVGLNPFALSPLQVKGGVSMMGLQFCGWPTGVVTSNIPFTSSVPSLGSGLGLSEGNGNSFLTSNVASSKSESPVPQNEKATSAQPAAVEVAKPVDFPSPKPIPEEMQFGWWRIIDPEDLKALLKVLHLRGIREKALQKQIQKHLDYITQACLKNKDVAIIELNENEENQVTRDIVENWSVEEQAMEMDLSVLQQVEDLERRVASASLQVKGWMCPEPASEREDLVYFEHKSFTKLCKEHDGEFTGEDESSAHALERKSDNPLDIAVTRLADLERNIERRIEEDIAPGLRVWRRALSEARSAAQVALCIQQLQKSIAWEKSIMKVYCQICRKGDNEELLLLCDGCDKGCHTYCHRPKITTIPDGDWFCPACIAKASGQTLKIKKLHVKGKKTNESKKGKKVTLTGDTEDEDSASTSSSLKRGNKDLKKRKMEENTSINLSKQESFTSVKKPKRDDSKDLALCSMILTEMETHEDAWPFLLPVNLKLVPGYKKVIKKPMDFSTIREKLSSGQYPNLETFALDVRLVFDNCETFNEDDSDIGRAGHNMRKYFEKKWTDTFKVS

SMILES | target | observed | technique | item | tested at | relative to | remaining binding
Nc1ncc2c(n1)-c1c([nH]c3ccc(C#Cc4ccncc4)cc13)CCC2 | PIP4K2C | binding | competition with immobilised ligand |  | 1 µM |  | 47%
CC(=O)N1c2ccc(-c3ccc(CNC(=O)c4cn5cc(-c6cnc(N)nc6)nc(N6CCOCC6)c5n4)cc3)cc2CC[C@@H]1C | ATPase family AAA domain-containing protein 2 (ATAD2, Homo sapiens, UniProt Q6PL18) | binding | competition with immobilised ligand |  | 10 µM |  | 91%
Cn1cc(-c2cc(N3CCCCS3(=O)=O)ccc2N[C@H]2CC[C@H](C)CC2)c2cc[nH]c2c1=O (stereo in doubt) | Bromodomain adjacent to zinc finger domain protein 2B, bromodomain (BAZ2B, Homo sapiens, UniProt Q9UIF8) | binding | competition with immobilised ligand |  | 1 µM |  | 100%
CNC(=O)C1CCN(c2cc(C)c(F)cc2NC(=O)c2ccc(-c3cc(O)ccc3C)c(C)c2)CC1 | Tyrosine-protein kinase ABL1, phosphorylated (ABL1, Homo sapiens, UniProt P00519, E255K) | binding | competition with immobilised ligand |  | 1 µM |  | 29%
Nc1ncc2c(n1)-c1c([nH]c3ccc(-c4ccc(F)cc4)cc13)CCC2 | PIP4K2C | binding | competition with immobilised ligand |  | 1 µM |  | 15%
COc1cc(Nc2nccc(-c3cnn4nc(OC)ccc34)n2)cc(C(F)(F)F)c1 | FLT3 ITD mutant, human |  | KINOMEscan scanMAX binding |  | 1000 nM | control | 100%
Cn1cc(-c2ccc3[nH]c4c(c3c2)-c2nc(N)ncc2CCC4)cn1 | PIP4K2C | binding | competition with immobilised ligand |  | 1 µM |  | 5.2%
C=CC(=O)N1CCc2ccc(-n3c(=O)ccc4cnc5ccc(-c6cnn(C)c6)cc5c43)cc21 | Tyrosine-protein kinase ABL1, phosphorylated (ABL1, Homo sapiens, UniProt P00519, H396P) |  | KINOMEscan | (H396P)-phosphorylated | 1 µM | control | 100%
Cc1cnc2nc1Nc1cccc(c1)COC/C=C/COCc1cc(ccc1OCCN1CCOCC1)N2 | Epidermal growth factor receptor (EGFR, Homo sapiens, UniProt P00533, del746-750) | binding |  |  | 0.1 µM |  | 77%
Nc1ncc2c(n1)-c1c([nH]c3ccc(C#CC4CC4)cc13)CC2 | PIP4K2C | binding | competition with immobilised ligand |  | 1 µM |  | 5%
C=CC(=O)N1CCCC(n2c(=O)c3ncccc3n(Cc3ccc(Oc4ccccc4)cc3)c2=O)C1 (stereo not shown) | Tyrosine-protein kinase ABL1, phosphorylated (ABL1, Homo sapiens, UniProt P00519, Y253F) | binding | competition with immobilised ligand |  | 1 µM |  | 95%
CNC1C[S+]2CC[S+]3CC[S+](C1)[Ru-4]321([N]=C=S)[n]2c3ccc(OC)cc3c3c4c(c5cc(F)c[n+]1c5c32)C(=O)NC4=O (stereo not shown) | Tyrosine-protein kinase ABL1, non-phosphorylated (ABL1, Homo sapiens, UniProt P00519, T315I) |  | KinomeScan |  | 0.1 µM | untreated | 97%
Cc1cc(NC(=O)[C@H](O)c2cc(F)cc(F)c2)ccc1-c1cnc(N)c(C(=O)NC(C)C)c1 | Interferon-induced, double-stranded RNA-activated protein kinase (EIF2AK2, Homo sapiens, UniProt P19525) | binding | competition with immobilised ligand |  | 0.1 µM |  | 100%

A few entries again:
SMILES | target | observed | technique | item | tested at | relative to | remaining binding
COc1cc(Nc2nccc(-c3cnn4nc(OC)ccc34)n2)cc(C(F)(F)F)c1 | FLT3 ITD mutant, human |  | KINOMEscan scanMAX binding |  | 1000 nM | control | 100%
C=CC(=O)N1CCc2ccc(-n3c(=O)ccc4cnc5ccc(-c6cnn(C)c6)cc5c43)cc21 | Tyrosine-protein kinase ABL1, phosphorylated (ABL1, Homo sapiens, UniProt P00519, H396P) |  | KINOMEscan | (H396P)-phosphorylated | 1 µM | control | 100%
